{"data": "Assay results from different studies", "note": "Protocols differ between the studies behind these lines. Numbers after ± are the reported error."}
{"Molecule": "CC(C)(C)[C@H](NC(=O)C(F)(F)F)C(=O)N1C[C@H]2[C@@H]([C@H]1C(=O)N[C@H](C#N)C[C@@H]1CCNC1=O)C2(C)C", "organism": "SARS-CoV-2", "test": "plaque area", "test system": "Vero-AT, recombinant L152F/Q269H", "EC50 [nM]": 32.1}
{"Molecule": "NC12CC3CC(CC(C3)C1)C2", "organism": "Influenza A virus", "test": "viral replication, plaque size reduction", "test system": "MDCK, A/Swine/Indiana/27-1112/2010 (H3N2)", "EC50 [nM]": "34500 ± 4300"}
{"Molecule": "CCC(C(=O)Nc1sc(C(N)=O)c(C)c1C(=O)OC)c1ccc(F)cc1 (centres unmarked)", "organism": "vaccinia virus mD4 surrogate", "test": "viral replication, plaque", "test system": "BSC-1", "conditions": "24 h", "EC50 [nM]": "13200 ± 2900"}
{"Molecule": "CC(C)(C)[C@H](NC(=O)C(F)(F)F)C(=O)N1C[C@H]2[C@@H]([C@H]1C(=O)N[C@H](C#N)C[C@@H]1CCNC1=O)C2(C)C", "organism": "SARS-CoV-2", "test": "replicon reporter (NanoLuc)", "test system": "HEK-293T, Omicron BA.1 replicon, 3CLpro S144A/E166A", "conditions": "48 h", "EC50 [nM]": "2220 ± 410"}
{"Molecule": "Cn1cnc(Cn2c(=O)[nH]/c(=N\\c3cc4cn(C)nc4cc3Cl)n(Cc3cc(F)c(F)cc3F)c2=O)n1", "organism": "SARS-CoV-2", "test": "cytopathic effect", "test system": "Vero E6, BA.2.3", "EC50 [nM]": 240}
{"Molecule": "O=C(NCc1cccs1)[C@@H]1CN(C(=O)c2cccnc2)CCN1c1ccc(Cl)c(Cl)c1", "organism": "SARS-CoV-2", "test": "viral replication", "test system": "USA-WA1/2020", "EC50 [nM]": 1000}
{"Molecule": "hexadimethrine", "organism": "prion", "test": "PrPSc level, ELISA", "test system": "ScN2a-cl3 dividing", "conditions": "third replicate above 10 µM", "EC50 [nM]": "> 10000"}
{"Molecule": "C[C@H](NP(=O)(Nc1ccn([C@H]2CS[C@@H](COP(=O)(N[C@@H](C)C(=O)OCc3ccccc3)N[C@@H](C)C(=O)OCc3ccccc3)O2)c(=O)n1)N[C@@H](C)C(=O)OCc1ccccc1)C(=O)OCc1ccccc1", "organism": "HIV-1", "test": "viral replication", "test system": "CCRF-CEM, IIIB", "conditions": "4 d", "EC50 [nM]": "16000 ± 5300"}
{"note": "Some of these lines once more:"}
{"Molecule": "NC12CC3CC(CC(C3)C1)C2", "organism": "Influenza A virus", "test": "viral replication, plaque size reduction", "test system": "MDCK, A/Swine/Indiana/27-1112/2010 (H3N2)", "EC50 [nM]": "34500 ± 4300"}
